Results from different studies.
Lines come from different studies, so protocols differ. “And” joins repeats or separate records; there may be more than shown. Numbers after ± are the reported error. Values after ≈ are worked out from the molar mass of the structure shown.

Structure (SMILES) | test | test system | conditions | scale | measurement | value
C=C(NC(=O)c1csc(-c2nc3c(cc2O)-c2nc(cs2)C(=O)NC(C(C)O)C(=O)NC(=C(C)OC)c2nc(cs2)C(=O)NC2c4nc(cs4)C(=O)NC(COC(=O)c4c5c6c(cccc6n4O)COC(=O)C(OC4CC(C)(O)C(N(C)C)C(C)O4)C2OC5)c2nc-3cs2)n1)C(N)=O (stereo not shown) |  | ICR mice, Streptococcus pneumoniae ATCC 49169 infected, immunocompromised, blood | intravenous, 32 mg/kg/day twice daily |  | Cmax | 1590 ng/mL
O=C([O-])CN1CCN(CC(=O)[O-])CCN(C(CO)C(O)CO)CCN(CC(=O)[O-])CC1.[Dy+3] (stereo not shown) |  | cynomolgus monkey, kidney cortex | dose not given, day 5 |  | lanthanide concentration | 29 ± 23 nmol/g
COc1cnc2cccc(N3CCc4c(cc(Cn5ccnc5)cc4-c4cn(C)nc4C(F)(F)F)C3=O)c2c1 |  | male CD-1 mouse, plasma | oral, 10 mg/kg |  | MRT(0-inf) | 84 min
C=CC(=O)Nc1cc(Nc2nccc(-c3c[nH]c4ccccc34)n2)c(OC)cc1N(C)CCN(C)C | storage stability | human plasma | 10 d, -80 °C, LQC level |  | recovery | 101%
CN([O-])C(=O)CN1CCNCCN(CC(=O)N(C)[O-])CC1.[89Zr+4] | radio-TLC | human serum | 7 days, run 2 |  | intact complex | 100%
CN(Cc1ccccc1)C(=O)CN1CCN(CC(=O)[O-])CCN(CC(=O)[O-])CC1.[44Sc+3] |  | mouse, kidney | intravenous, 1 h |  | tracer uptake | 3.58 %ID/g
COc1ccccc1NC(=O)OC1C(C)C(OC)C=COC2(C)Oc3c(C)c(O)c4c(c3C2=O)C2=NC3(CCN(CC(C)C)CC3)NC2=C(NC(=O)C(C)=CC=CC(C)C(O)C(C)C(O)C1C)C4=O (stereo not shown) |  | CD-1 mouse female, plasma | intravenous, 5 mg/kg |  | elimination rate constant | 1.25e-05 s⁻¹
O=c1c2ccccc2[se]n1CCCCCCn1[se]c2ccccc2c1=O | shake-flask, RP-HPLC | acetone | 24 h, 25 °C |  | solubility | 440 ± 40 µg/mL (≈ 920 µM)
CN(Cc1ccccc1)C(=O)CN1CCN(CC(=O)[O-])CCN(Cc2cccc(C(=O)[O-])n2)CC1.[177Lu+3] |  | mouse, liver | intravenous, 1 h |  | tracer uptake | 2.37 %ID/g
CCCCN1C(=O)c2cccc3c(NCCCCCCN4CCOCC4)ccc(c23)C1=O |  | DMF |  |  | fluorescence quantum yield | 1
Cc1nc(N)nc2c1C(=O)N[C@@H](c1ccc(F)cc1-c1cccc(O[11CH3])n1)C2 | ex vivo biodistribution | mice, U87 subcutaneous xenograft, liver | 60 min post-injection, baseline, vehicle pre-treatment |  | SUV | 2.7 ± 0.1
C/C(N)=N/C(=N\S(=O)(=O)c1ccc(C(F)(F)F)cc1)N1C[C@H](c2ccccc2)C(c2ccc(Cl)cc2)=N1 |  | male C57BL/6 mouse, liver | intravenous, 5 mg/kg |  | Tmax | 30 min
Cc1cc(F)ccc1-c1cc(N2C[C@H]3COC(O)CN3C[C@H]2CO)ncc1N(C)C(=O)C(C)(C)c1cc(C(F)(F)F)cc(C(F)(F)F)c1 (stereo partly shown) |  | pooled human liver microsomes | pH 7.4, substrate depletion |  | Km | 0.128 µM
O=C([O-])CN1CCN(CC(=O)O)CCN(CC(=O)[O-])CCN(CC(=O)O)CC1.[64Cu+2] | dynamic PET | rat, chronic myocardial infarction | intravenous, dose not given |  | time to infarct accumulation | ≤ 1 min
Cc1ccc(OCC(=O)N(Cc2cccs2)c2ccn[nH]2)cc1 |  | human plasma | 750 ng/mL, 6 h, 37 °C, unit not given | baseline: time zero | remaining compound | 84.4
N#C[C@@H]1CC(F)(F)CN1C(=O)CNC(=O)c1ccnc2ccc(OCCCN3CCN(C(=O)CCc4ccc5c(c4)CN4CCN(Cc6cc(CCC(=O)O)ccc6O)CC(=O)[O][Al-]([18F])([O]C(=O)C4)[O]5)CC3)cc12 (stereo partly shown) | radio-TLC | CD-1 mice, plasma | intravenous, 60 min post-injection |  | radiochemical purity | 89.2 ± 4.5%
CN(O)C(=O)CCC(=O)NCCCN(CCCCN(CCCNC(=O)CCC(=O)N(C)O)C(=O)CCC(=O)N(C)O)C(=O)CCC(=O)N(C)O.[89Zr] | radio-TLC | aqueous buffer | 7 d, pH 7.2, 37 °C, 89Zr-labelled complex, with: CuCl2 10-fold excess |  | intact complex | 99.6 ± 0.4%
CC(C)(C)NCC(SS(=O)(=O)O)c1ccccc1 (stereo not shown) |  | Swiss Webster mice, Schistosoma mansoni-infected | 200 mg/kg single dose on day 42 post-infection, perfusion day 56 post-infection |  | body weight | 37.3 g
COc1cccc(OC)c1-c1cc(C(=O)NC2(C(=O)O)C3CC4CC(C3)CC2C4)nn1-c1ccc(C(=O)NCCNC(=O)[C@H](CCCCNC(=O)[C@H](CC(C)C)NC(=O)C2OC2C(=O)O)NC(=O)CN2CCN(CC(=O)[O-])CCN(CC(=O)[O-])CCN(CC(=O)[O-])CC2)cc1C(C)C.[177Lu+3] (mixture of isomers) |  | mouse, HT-29 xenograft, HT-29 tumour | 24 h post injection |  | tissue uptake | 6.3 %ID/g
N#C[C@@H]1CCCN1C(=O)CNC(=O)c1ccnc2ccc(OCCCN3CCN(C(=O)CCc4ccc(O)c(CN5CCN6CC(=O)[O][Al-]([18F])([O]C(=O)C5)[O]c5ccc(CCC(=O)N7CCN(CCCOc8ccc9nccc(C(=O)NCC(=O)N%10CCC[C@H]%10C#N)c9c8)CC7)cc5C6)c4)CC3)cc12 (stereo partly shown) | radio-TLC | CD-1 mice, plasma | intravenous, 10 min post-injection |  | radiochemical purity | 95.4 ± 1%

Structure (SMILES) | test | test system | conditions | scale | measurement | value
Cc1nn(-c2nc3c(F)cc(F)cc3s2)c(O)c1C(c1ccc(C(F)(F)F)cc1)c1c(C)nn(-c2nc3c(F)cc(F)cc3s2)c1O |  | ICR mouse, plasma | intraperitoneal, 10 mg/kg |  | CL/F observed | 5.51 mL/min/kg and 6.05 mL/min/kg and 5.25 mL/min/kg
O=C(NS(=O)(=O)c1cccs1)c1cc2ccccc2n1Cc1ccc(Br)c2ccccc12 |  | mouse, plasma | oral, 2 mg/kg |  | AUC(0-inf) | 364 ± 114 ng·h/mL
CN1CCC[C@]1(C)/C=C/S(=O)(=O)NC(=O)Nc1c2c(cc3c1CCC3)CCC2 | refers to: laboratory investigations | human | oral, 100 mg twice daily, 14 days, multiple ascending dose |  | subjects with adverse event | 50%
OC1(C(F)(F)F)CCN(c2nc(Nc3ccnc(C(F)(F)F)c3)nc(-c3cccc(C(F)(F)F)n3)n2)C1 (stereo not shown) |  | Sprague-Dawley rat, both sexes, plasma | intravenous, 1 mg/kg |  | AUC(0-t) | 1150 ± 200 ng·h/mL
CC[C@H](C)[C@@H]1NC(=O)[C@H](Cc2ccc(O)cc2)NC(=O)CCCSC[C@@H](C(=O)N(CC(=O)N[C@@H](CC(C)C)C(=O)NCC(N)=O)Cc2ccc(F)cc2)NC(=O)[C@H](CC(N)=O)NC(=O)[C@H](CCC(N)=O)NC1=O |  | healthy human, plasma | intranasal, 50 µg every 3 h, after second dose |  | Cmax | 0.044 ng/mL
Cc1ncsc1-c1ccc(CNC(=O)[C@@H]2C[C@@H](O)CN2C(=O)[C@@H](NC(=O)COCC(C)(COCCOCCOCCNC(=O)C[C@@H]2N=C(c3ccc(Cl)cc3)c3c(sc(C)c3C)-n3c(C)nnc32)COCCOCCOCCNC(=O)C[C@@H]2N=C(c3ccc(Cl)cc3)c3c(sc(C)c3C)-n3c(C)nnc32)C(C)(C)C)cc1 |  | C57BL/6 mouse, male, plasma | intravenous, 5 mg/kg |  | AUC(0-inf) | 27600 ng·h/mL
O=C([O-])CN1CCN(CC(=O)[O-])CCN(Cc2cccc(C(=O)[O-])n2)CC1.[177Lu+3] |  | mouse, lung | intravenous, 1 h |  | tracer uptake | 0.49 %ID/g
O=C(c1ccccc1)N1C(c2ccc(OCC3CCN(CCCF)C3)cc2)c2ccc(O)cc2CC12CC2 (stereo not shown) |  | C57BL/6J mouse, plasma | intraperitoneal, 25 mg/kg |  | AUC(0-inf) | 7380 ng·h/mL and 9450 ng·h/mL
COc1cccc(OC)c1-c1cc(C(=O)NC2(C(=O)O)C3CC4CC(C3)CC2C4)nn1-c1ccc(C(=O)N(C)CCOCCN(C)C(=O)[C@H](CCCCNC(=O)[C@H](CC(C)C)NC(=O)C2OC2C(=O)O)NC(=O)CN2CCN(CC(=O)[O-])CCN(CC(=O)[O-])CCN(CC(=O)[O-])CC2)cc1C(C)C.[177Lu+3] (mixture of isomers) |  | mouse, HT-29 xenograft | 4 h post injection, biodistribution | baseline: tumour over muscle uptake | tumour-to-muscle ratio | 21
O=C(Nc1cnccc1-c1ccc([18F])cc1)c1ccnc(NC(=O)C2CC2)c1 | ex vivo gamma counting | GSK-3β transgenic mice, early-stage, cerebellum | intravenous, 120 min, mean, no P-gp inhibitor |  | SUV | 0.05
CN1CCCNC(=O)c2cccc(c2)C(=O)NCCCN(C)CCCNc2cccc3c2C(=O)c2cccc(c2C3=O)NCCC1 |  | nude mice, serum | dose not given, 10 days |  | BUN | 15.4 ± 1.5 mg/dL
COc1ccc2c(c1)C(C)(C)C(/C=C/C1=C(Oc3ccc(C(=O)NCCCCOc4cc(CN(Cc5ccccn5)Cc5ccccn5)cc(CN(Cc5ccccn5)Cc5ccccn5)c4)cc3)C(=C/C=C3/N(CCCCS(=O)(=O)[O-])c4ccc(OC)cc4C3(C)C)CCC1)=[N+]2CCCCS(=O)(=O)[O-].O=[N+]([O-])[O-].O=[N+]([O-])[O-].[99Tc+].[C-]#[O+].[C-]#[O+].[C-]#[O+].[Zn+2] |  | mouse, lung | 12 h |  | tracer uptake | 1.68 %ID/g
O=C([O-])CN1CCN(CC(=O)[O-])CCN(CC(=O)[O-])CC1.[44Sc+3] |  | mouse, kidney | intravenous, 1 h |  | tracer uptake | 1.54 %ID/g
O=C(Nc1cnccc1-c1ccc([18F])nc1)c1ccnc(NC(=O)C2CC2)c1 | ex vivo gamma counting | GSK-3β transgenic mice, early-stage, eyes | intravenous, 120 min, mean, P-gp inhibitor pretreatment, with: tariquidar 15 mg/kg iv |  | SUV | 0.072
CC(C)c1cnc(-c2cc(Cl)ccc2F)cc1Nc1ccncc1C(=O)NC(CO)CO |  | female C57BL/6 mice, plasma | oral, 100 mg/kg twice daily, day 1, MC-38 tumour-bearing |  | unbound Cmax | 322 nM
CCC1CNC(CC)CN(C(C(=O)[O-])c2ccc(C(=O)[O-])cc2)C(CC)CN(CC(=O)[O-])C(CC)CN1.[Mn+2] (stereo not shown) | ICP-MS | BALB/c mouse, heart | intravenous, 0.05 mmol/kg, 5 min, without anaesthesia |  | Mn content | 1.86 ± 0.09 µg/g
COc1cc(N2CCN(C(=O)C3CCCN3)CC2)ccc1Nc1ncc(Cl)c(Nc2ccccc2P(C)(C)=O)n1 (stereo not shown) |  | nude mice, NCI-H3122 xenograft | oral, dose not given, day 13 |  | body weight | 22.8 g and 22.9 g and 22.7 g and 23.5 g and 25.3 g
CN(Cc1ccccc1)C(=O)CN1CCN(CC(=O)[O-])CCN(CC(=O)N(C)Cc2ccccc2)CC1.[44Sc+3] |  | mouse, blood | intravenous, 1 h |  | tracer uptake | 1.45 %ID/g
COc1cccc(OC)c1-c1cc(C(=O)NC2(C(=O)O)C3CC4CC(C3)CC2C4)nn1-c1ccc(C(=O)N(C)CCOCCOCCN(C)C(=O)[C@H](CCCCNC(=O)[C@H](CC(C)C)NC(=O)C2OC2C(=O)O)NC(=O)CN2CCN(CC(=O)[O-])CCN(CC(=O)[O-])CCN(CC(=O)[O-])CC2)cc1C(C)C.[177Lu+3] (mixture of isomers) |  | mouse, HT-29 xenograft, kidney | 168 h post injection |  | tissue uptake | 2 %ID/g
C=CC(=O)Nc1cc(Nc2nccc(-c3cn(C)c4ccccc34)n2)c(OC)cc1N(C)CCNC | storage stability | human dried blood spot | 10 d, -80 °C, LQC level |  | recovery | 103%

A few entries again:
Structure (SMILES) | test | test system | conditions | scale | measurement | value
Cc1nc(N)nc2c1C(=O)N[C@@H](c1ccc(F)cc1-c1cccc(O[11CH3])n1)C2 | ex vivo biodistribution | mice, U87 subcutaneous xenograft, liver | 60 min post-injection, baseline, vehicle pre-treatment |  | SUV | 2.7 ± 0.1
C/C(N)=N/C(=N\S(=O)(=O)c1ccc(C(F)(F)F)cc1)N1C[C@H](c2ccccc2)C(c2ccc(Cl)cc2)=N1 |  | male C57BL/6 mouse, liver | intravenous, 5 mg/kg |  | Tmax | 30 min
Cc1cc(F)ccc1-c1cc(N2C[C@H]3COC(O)CN3C[C@H]2CO)ncc1N(C)C(=O)C(C)(C)c1cc(C(F)(F)F)cc(C(F)(F)F)c1 (stereo partly shown) |  | pooled human liver microsomes | pH 7.4, substrate depletion |  | Km | 0.128 µM
